Experimental data of several laboratories.
Compare with care: the assays were run in different laboratories. “And” joins repeats or separate records; there may be more than shown. ± gives the spread as reported.
SCN9A: Sodium channel protein type 9 subunit alpha (SCN9A, Homo sapiens, UniProt Q15858)
Replicase polyprotein 1a papain-like protease: Replicase polyprotein 1a, papain-like protease (Severe acute respiratory syndrome coronavirus 2, UniProt P0DTC1)
OPG122: mRNA-decapping protein OPG122 (OPG122, Vaccinia virus, UniProt P04312)

CC(C)C[C@H](NC(=O)[C@H](CC(=O)O)NC(=O)[C@H](Cc1ccc(O)cc1)NC(=O)[C@H](CCCCN)NC(=O)[C@@H]1CSSC[C@@H]2NC(=O)[C@H](CCCCN)NC(=O)[C@H](CC(=O)O)NC(=O)[C@H](CC(N)=O)NC(=O)[C@H](CO)NC(=O)[C@@H]3CCCN3C(=O)[C@H](CC(N)=O)NC(=O)[C@@H]3CSSC[C@H](NC(=O)[C@H](C(C)C)NC(=O)[C@H](CC(C)C)NC(=O)[C@H](CO)NC(=O)[C@H](CO)NC(=O)[C@H](CO)NC(=O)[C@H](CCCCN)NC(=O)[C@H](CSSC[C@H](NC(=O)[C@H](C)N)C(=O)N[C@@H](CC(C)C)C(=O)NCC(=O)N[C@@H](Cc4ccccc4)C(=O)NCC(=O)N[C@@H](CCC(=O)O)C(=O)N[C@@H](CCCCN)C(=O)N3)NC2=O)C(=O)N[C@@H](CO)C(=O)N[C@@H](CCC(N)=O)C(=O)N[C@@H](CCCCN)C(=O)N[C@@H](Cc2c[nH]cn2)C(=O)N[C@@H](CCCCN)C(=O)N[C@@H](CCCCN)C(=O)N1)C(=O)O gave an IC50 of over 20 µM (SCN9A; ion current, inhibitor, patch clamp).
For O=C(O[C@@H]1Cc2c(O)cc(O)cc2O[C@@H]1c1cc(O)c(O)c(O)c1)c1cc(O)c(O)c(O)c1, the IC50 was at least 100 µM (Replicase polyprotein 1a, main protease (Severe acute respiratory syndrome-related coronavirus, UniProt P0C6U8); enzyme activity, inhibitor).
CN(C)c1nc(N2CCNCC2)c2sc3nc(-c4ccccc4)ccc3c2n1 has an IC50 of 0.071 ± 0.002 µM (Beta-glucuronidase (bglR, Clostridium perfringens, UniProt Q8XP19)).
Cc1cc(O)cc(O)c1C(=O)O[C@@H]1CC2=C(COC(/C=C/CO)=C2)C(=O)[C@]1(C)O has an IC50 of 233 ± 5.7 µM (Neuraminidase (NA, Influenza A virus, UniProt Q6DPL2); influenza A virus H5N1).
With CCN1CCN(c2ccc(C)c(C(=O)NC3(c4ccc5c6c(cccc46)CC5)CC3)c2)CC1C (stereo not drawn) the IC50 was 0.0146 µM (Replicase polyprotein 1a papain-like protease; enzyme activity, inhibitor).
With CC[C@H](C)[C@H](NC(=O)[C@H](C)NC(=O)[C@H](CCC(=O)O)NC(=O)[C@H](CCC(=O)O)NC(=O)[C@H](CC(C)C)NC(=O)[C@H](CCCCN)NC(=O)[C@H](CCCCN)NC(=O)[C@H](CCSC)NC(=O)[C@H](CCC(=O)O)NC(=O)[C@H](Cc1ccc(O)cc1)NC(=O)[C@H](CCC(=O)O)NC(=O)[C@H](CC(C)C)NC(=O)[C@H](CC(=O)O)NC(=O)[C@H](CC(C)C)NC(=O)[C@H](Cc1ccccc1)NC(=O)[C@@H](NC(=O)[C@@H](NC(=O)[C@H](CC(N)=O)NC(=O)[C@@H](NC(=O)[C@H](CCC(N)=O)NC(=O)[C@H](CC(=O)O)NC(=O)[C@H](CC(C)C)NC(=O)[C@H](CO)NC(=O)CNC(=O)[C@H](CC(C)C)NC(=O)[C@H](CC(=O)O)NC(=O)[C@@H](N)C(C)C)[C@@H](C)CC)C(C)C)[C@@H](C)O)C(=O)N[C@@H](CCCCN)C(=O)N[C@@H](CCCCN)C(=O)N[C@@H](CC(C)C)C(=O)N[C@@H](CCC(=O)O)C(=O)N[C@@H](CCC(=O)O)C(=O)N[C@@H](CO)C(=O)N[C@@H](Cc1ccc(O)cc1)C(=O)N[C@H](C(=O)N[C@@H](CC(=O)O)C(=O)N[C@@H](CC(C)C)C(=O)N[C@@H](CCCCN)C(=O)N[C@@H](CCC(=O)O)C(=O)N[C@@H](CC(C)C)C(=O)O)[C@@H](C)CC the IC50 was 0.0392 µM (Spike glycoprotein, Beta variant (Severe acute respiratory syndrome coronavirus 2, UniProt P0DTC2); viral replication; SARS-CoV-2).
Cc1ccc(N)cc1C(=O)N[C@H](C)c1ccc2c3c(cccc13)CC2 gave an IC50 of 2.21 µM (Replicase polyprotein 1a papain-like protease; cell-free assay).
The IC50 of Cc1ccc(NC(=S)NNc2c([N+](=O)[O-])cc(C(F)(F)F)cc2[N+](=O)[O-])cc1Cl is reported as > 20 µM and 29.6 µM (Transcriptional activator VP30, with NP peptide (VP30, Zaire ebolavirus, UniProt Q05323); Ebola virus).
With COc1nc(N)nc2c1ncn2C1OC(COP(=O)(O)OP(=O)(O)OP(=O)(O)O)C(O)C1O (stereo not drawn) the IC50 was over 200 µM (OPG122).
CCC(C(=O)Nc1ccccc1Cl)n1cccc2nc(SCc3ccc(F)cc3)nc1-2 (stereo not drawn) gave an IC50 of over 100 µM (Replicase polyprotein 1ab, papain-like protease (rep, Middle East respiratory syndrome-related coronavirus, UniProt K9N7C7); enzyme activity, inhibitor).
With CC(C)(OC1OC(CO)C(O)C(O)C1O)C1CCC(C)(C2C(O)CC3(C)C4CC(O)C5C(C)(C)C(OC6OCC(O)C(O)C6OC6OC(CO)C(O)C(O)C6O)CCC56CC46CCC23C)O1 (stereo not drawn) the IC50 was 15.2 µM (Spike glycoprotein (Severe acute respiratory syndrome coronavirus 2, UniProt P0DTC2); spike RBD-ACE2 binding, inhibitor, ELISA).
The IC50 of COc1cccc2[nH]c(C(=O)NC(CC(C)C)C(=O)NC(CC3CCCNC3=O)C(=O)COC(=O)c3c(C)cc(C)nc3C)cc12 (stereo not drawn) is reported as 0.437 µM (Cathepsin B (CTSB, Homo sapiens, UniProt P07858); enzyme activity, inhibitor, fluorescence; pH 5, with preincubation).
The IC50 of CC(=O)N[C@H]1CC(=O)NCCCC[C@@H](C(N)=O)NC(=O)[C@@H](Cc2ccccc2)NC(=O)[C@@H]2CCCN2C(=O)[C@H](CC(=O)O)NC(=O)[C@H](CC(C)C)NC(=O)[C@H](Cc2ccc(C(=O)O)cc2)NC(=O)[C@H](CCC(=O)O)NC1=O is reported as over 100 µM (Secreted effector protein (Yersinia pestis, UniProt O68720)).
With CCC(CC)O[C@@H]1C=C(C(=O)O)C[C@H](NCc2ccc(N3CC[C@@H](F)C3)cc2)[C@H]1NC(C)=O the IC50 was 0.37 µM (Neuraminidase (NA, Influenza A virus, UniProt P03468); enzyme activity, inhibitor).
Nc1nc2c(nc(O)n2C2OC(COP(=O)(O)OP(=O)(O)OP(=O)(O)O)C(O)C2O)c(=O)[nH]1 (stereo not drawn) gave an IC50 of over 200 µM (OPG122; inhibitor).
The IC50 of CC1=C(C(=O)O)C(c2ccccc2Br)NC(=S)N1 (stereo not drawn) is reported as 0.0184 ± 0.00105 µM (Angiotensin-converting enzyme 2, with SARS-CoV-2 spike RBD (ACE2, Homo sapiens, UniProt Q9BYF1); inhibitor).
CC(C)C[C@H](NC(=O)[C@H](CC(=O)O)NC(=O)[C@H](CCCCN)NC(=O)[C@H](CCCCN)NC(=O)[C@@H]1CSSC[C@@H]2NC(=O)[C@H](CCCCN)NC(=O)[C@H](CC(=O)O)NC(=O)[C@H](CC(N)=O)NC(=O)[C@H](CO)NC(=O)[C@@H]3CCCN3C(=O)[C@H](CC(N)=O)NC(=O)[C@@H]3CSSC[C@H](NC(=O)[C@H](C(C)C)NC(=O)[C@H](CC(C)C)NC(=O)[C@H](CO)NC(=O)[C@H](CO)NC(=O)[C@H](CO)NC(=O)[C@H](CCCCN)NC(=O)[C@H](CSSC[C@H](NC(=O)[C@H](C)N)C(=O)N[C@@H](CC(C)C)C(=O)NCC(=O)N[C@@H](Cc4ccccc4)C(=O)NCC(=O)N[C@@H](CCC(=O)O)C(=O)N[C@@H](CCCCN)C(=O)N3)NC2=O)C(=O)N[C@@H](CO)C(=O)N[C@@H](CCC(N)=O)C(=O)N[C@@H](CCCCN)C(=O)N[C@@H](Cc2c[nH]cn2)C(=O)N[C@@H](CCCCN)C(=O)N[C@@H](Cc2c[nH]c3ccccc23)C(=O)N1)C(=O)O has an IC50 of over 20 µM (SCN9A; ion current, inhibitor, patch clamp).
COC1C(COP(=O)(O)OP(=O)(O)OP(=O)(O)O)OC(n2cnc3c(=O)[nH]c(N)nc32)C1O (stereo not drawn) gave an IC50 of 65 µM (OPG122).
CC[C@H](C)[C@@H]1NC(=O)[C@@H]2CSSC[C@H](NC(=O)[C@H](CCCNC(=N)N)NC(=O)[C@@H]3CSSC[C@H](NC1=O)C(=O)N[C@@H]([C@@H](C)O)C(=O)N[C@@H](CCCNC(=N)N)C(=O)NCC(=O)N[C@@H](Cc1ccccc1)C(=O)N3)C(=O)N[C@@H](CC(N)=O)C(=O)N[C@H]1CSSC[C@H](NC(=O)[C@H](Cc3c[nH]cn3)NC(=O)[C@H](CCC(=O)O)NC(=O)[C@H](CO)NC(=O)[C@H](C)NC1=O)C(=O)N[C@@H]([C@@H](C)O)C(=O)N2 has an IC50 of over 10 µM (Lethal factor (Bacillus anthracis, UniProt P15917); enzyme activity, inhibitor).
For CC(C)C[C@@H]1NC(=O)[C@H](CCCNC(=N)N)NC(=O)[C@@H]2CCCN2C(=O)[C@@H]2CSSC[C@H](NC(=O)CNC(=O)[C@@H]3CCCN3C(=O)[C@H](CCCCN)NC(=O)[C@H](CC(=O)O)NC(=O)[C@@H](NC(=O)CN)C(C)C)C(=O)N[C@@H](CCCNC(=N)N)C(=O)N[C@@H](Cc3ccc(O)cc3)C(=O)N[C@@H](CC(C)C)C(=O)N[C@@H](Cc3ccccc3)C(=O)NCC(=O)NCC(=O)N[C@H]3CSSC[C@H](NC(=O)CNC1=O)C(=O)N[C@@H](CCCCN)C(=O)NCC(=O)N[C@@H](CCCCN)C(=O)NCC(=O)N[C@@H](Cc1c[nH]cn1)C(=O)N[C@@H](CC(=O)O)C(=O)N[C@@H](Cc1ccc(O)cc1)C(=O)N[C@H](C(=O)N[C@@H](C)C(=O)N[C@@H](Cc1c[nH]c4ccccc14)C(=O)N[C@@H](CC(=O)O)C(=O)NCC(=O)N[C@H](C(=O)N[C@@H](Cc1ccccc1)C(=O)N[C@@H](CO)C(=O)N[C@@H](CC(=O)O)C(=O)O)[C@@H](C)O)CSSC[C@H](NC(=O)[C@H](CC(=O)O)NC(=O)[C@H](CC(=O)O)NC(=O)[C@H](CC(=O)O)NC(=O)[C@H](CO)NC(=O)[C@H](CCCCN)NC3=O)C(=O)N2, the IC50 was 0.38 µM (SCN9A; peak sodium current, inhibitor, automated patch clamp; HEK293; holding potential -100 mV, added: 0.1 % BSA).
The IC50 of C[n+]1cn(C2OC(COP(=O)(O)OP(=O)(O)OP(=O)(O)OCC3OC(n4cnc5c(=O)[nH]c(N)nc54)C(O)C3O)C(O)C2O)c2nc(N)[nH]c(=O)c21 (stereo not drawn) is reported as 69 µM (OPG122; inhibitor).
